Results gathered from unrelated publications.
Each numbered part is a random draw from the data of one study; scales do not carry over between parts.

Series 1
Target: Fragile X messenger ribonucleoprotein 1, C-terminal low-complexity region (Fmr1, Mus musculus, UniProt P35922)
Method: RNA Bind-n-Seq
Molecule type: RNA
Matrix: in vitro
Tested at: 200 nM
Setting: whole 134-nt RNA, ends assumed
With: 150 mM LiCl
Relative to: input library
Reading: higher = stronger binding
All molecules: 7-deaza-guanosine replaces G
Strand | log2 enrichment
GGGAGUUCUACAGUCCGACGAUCCUCAAGUCCUGUGCUACACAUCGUAUGUACCGAAUCGGGUUUGGGAGGGUGGGAAAGUAUUAUGUUACGCCGUUCGGAUCUGCACUUCCAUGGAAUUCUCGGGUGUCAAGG | -0.291
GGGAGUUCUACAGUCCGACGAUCCCUCAAGUCCUGUGCUACACAUCGUAUGUACCGAAUCGGGGCGGCGGGGCGGAAAGUAUUAUGUUACGCCGUUCGGAUCUGCACUUCCAGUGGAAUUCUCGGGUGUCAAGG | -0.74
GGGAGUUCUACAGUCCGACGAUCUCAAGUCCUGUGCUACACAUCGUAUGUACCGAAUCGGAAAGGAGGAAAAAAAGGAAAGUAUUAUGUUACGCCGUUCGGAUCUGCACUUCCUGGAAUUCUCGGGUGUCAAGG | -0.344
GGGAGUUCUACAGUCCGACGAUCCAAGUCCUGUGCUACACAUCGUAUGUACCGAAUCGGGUGGGAAAAAGGGAAAGGGAAAGUAUUAUGUUACGCCGUUCGGAUCUGCACUUCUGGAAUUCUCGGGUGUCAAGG | -0.772
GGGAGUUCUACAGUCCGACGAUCCUGUGCUACACAUCGUAUGUACCGAAUCGGGGUUUUUUUGGUUUUUUUGGGUUUUUUUGGGAAAGUAUUAUGUUACGCCGUUCGGAUCUGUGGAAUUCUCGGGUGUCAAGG | 0.0921
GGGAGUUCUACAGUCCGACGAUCUGGGAGGUGGAUUUUGUUUAUUUUUUUAGCUCAUUUCCAGGGGUGGGAAUUUUUUUUCAAUAUGUGUCAUGAAUAAAGUUGUUUUUGAAAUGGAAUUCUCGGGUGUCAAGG | 0.188
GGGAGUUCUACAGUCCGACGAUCCACAGACAACACGCACCCGCACAGACACAGAGGGAAGGGGUUGGGAUGGGGACAGGGUGCACAGCAGGGCGGGGUAGGACCCCAGCCCCUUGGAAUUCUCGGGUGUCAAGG | 0.613
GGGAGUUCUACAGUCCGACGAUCCAAGUCCUGUGCUACACAUCGUAUGUACCGAAUCGGCCCCGGCCCCGGCCCCGGGAAAGUAUUAUGUUACGCCGUUCGGAUCUGCACUUCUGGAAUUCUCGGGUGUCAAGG | -0.269

Series 2
Organism: SARS-CoV-2
Read-out: cytopathic effect
Cells: Vero E6
Tested at: 10 µM
SMILES | inhibition
CNC(=O)ON(C(C)=O)C(=O)NC | -2.6%
C[C@@H]1O[C@@H](Oc2c(-c3cc(O)c(O)c(O)c3)oc3cc(O)cc(O)c3c2=O)[C@@H](O)[C@H](O)[C@H]1O | -3.2%
Cc1ccccc1N(C)C(=O)c1ccc([S+]([O-])c2nccs2)c([N+](=O)[O-])c1 (stereo not shown) | -37.4%
Sc1nnc(-c2ccccc2Cl)o1 | -0.8%
c1cnc(SCc2cccnc2)nc1 | -4%

Series 3
Target: Replicase polyprotein 1ab, polymerase (rep, Severe acute respiratory syndrome coronavirus 2, UniProt P0DTD1)
Read-out: enzyme activity
Mode: inhibitor
Tested at: 20 µM
SMILES | inhibition [%]
Cc1ccccc1-n1c(CF)nc2ccc(N)cc2c1=O | 2.05
COc1nc(C)nc(Cl)c1NC1=NCCN1 | -7.99
C/C=C(/C)C(=O)O[C@H]1C(C)=C[C@]23C(=O)[C@@H](C=C(CO)[C@@H](O)[C@]12O)[C@H]1[C@@H](C[C@H]3C)C1(C)C | -2.74
CSc1ccccc1OCC(O)CNC(C)C (stereo not shown) | -0.4
O=C(CC(c1ccccc1)c1ccccc1)N1CCN(C(c2ccccc2)c2ccccc2)CC1 | -15.2
Cc1noc(C)c1-c1cc(O)cc(C(O)c2ccccc2)c1 (stereo not shown) | 0.97
CCCCCCCCCCCCCCOC(=O)c1cccnc1 | 0.28
CN(C)CCCOc1nn(Cc2ccccc2)c2ccccc12 | -4.82
CCC(C)C(CC)C(N)=O (stereo not shown) | -0.39
N[C@@H](CC(=O)N1CCn2c(nnc2C(F)(F)F)C1)Cc1cc(F)c(F)cc1F | 50
NC(N)=NC(=O)c1cnccn1 | 3.61
Cn1c2c(c3ccccc31)CCNCC2 | -2.53
NCCCC[C@H](NC(=O)[C@@H]1CCCN1C(=O)[C@@H]1CSSC[C@H](NC(=O)CNC(=O)CNC(=O)CN)C(=O)N[C@@H](Cc2ccc(O)cc2)C(=O)N[C@@H](Cc2ccccc2)C(=O)N[C@@H](CCC(N)=O)C(=O)N[C@@H](CC(N)=O)C(=O)N1)C(=O)NCC(N)=O | 1.65
C[C@@H]1CC[C@@]2(OC1)O[C@H]1C[C@H]3[C@@H]4CC=C5C[C@@H](O[C@@H]6O[C@H](CO)[C@@H](O[C@@H]7O[C@@H](C)[C@H](O)[C@@H](O)[C@H]7O)[C@H](O)[C@H]6O[C@@H]6O[C@@H](C)[C@H](O)[C@@H](O)[C@H]6O)CC[C@]5(C)[C@H]4CC[C@]3(C)[C@H]1[C@@H]2C | -4.6
O=c1cc[nH]c2cc(Cl)ccc12 | 0.44
NCc1ccc(S(N)(=O)=O)cc1 | 21.6
O=S(=O)(O)CCSSCCS(=O)(=O)O | 2.4
NC(=O)[C@@H]1CC[C@@H]2CN1C(=O)N2OS(=O)(=O)O | -3.56
Clc1ccc([C@]23CNC[C@H]2C3)cc1Cl | 0.23
OC(c1ccccc1)(c1ccccc1)C1CCNCC1 | -5.21
CNC(=O)c1ccc2cc([C@@]3(O)CCn4cncc43)ccc2c1 | -2.6
N[C@@H](Cc1cc(I)c(Oc2cc(I)c(O)c(I)c2)c(I)c1)C(=O)O | 11.7
N#CN1CCCC1 | -2.45
O=c1[nH]nc2c3c(cccc13)N=C(CN1Cc3ccccc3C1)N2 | 0.16
CNCc1ccc(-c2cc(-c3nc(-c4ccc(S(=O)(=O)C(C)C)cc4)cnc3N)on2)cc1 | 13.5

Series 4
Cell line: HEK-293T
Read-out: pseudovirus infection
Method: FDA-approved drug library screen
Organism: VSV pseudotyped with SARS-CoV-2 spike
Tested at: 10 µM
Time: 16 h
Relative to: vehicle-treated
Compound | GFP-positive cells
NC(=O)c1cnccn1 | 86.7%
C[N+](C)(C)CC(=O)O | 105%
C#C[C@]1(O)CC[C@H]2[C@@H]3CCC4=C(CCC(=O)C4)[C@H]3CC[C@@]21C | 102%
CC(C)(O/N=C(\C(=O)N[C@@H]1C(=O)N2C(C(=O)[O-])=C(C[n+]3ccccc3)CS[C@H]12)c1csc(N)n1)C(=O)O | 88.7%
CN(C)c1ccc(C(=C2C=CC(=[N+](C)C)C=C2)c2ccc(N(C)C)cc2)cc1 | 22.5%
COc1ccc(C(=O)c2ccccc2)c(O)c1 | 104%

Series 5
Target: Histone acetyltransferase KAT6A, winged helix 1, GST fusion (KAT6A, Homo sapiens, UniProt Q92794, residues 1-85)
Method: protein binding microarray
Molecule type: double-stranded DNA, one strand shown
Matrix: in vitro
Tested at: not given
Setting: 8-mer, flanks averaged, mean of 2 arrays, mostly near background
Relative to: not given
Reading: higher = stronger binding
Target sequence (chain): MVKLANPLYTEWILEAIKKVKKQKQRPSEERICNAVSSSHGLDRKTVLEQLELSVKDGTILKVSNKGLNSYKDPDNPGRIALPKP
Strand | E-score
AATGTGGG | -0.165
AGCCTTAC | -0.0938
CCCAACCG | -0.00989
AAAAGTTT | -0.156
GGCAGTCA | -0.0672
GCGTGGCA | 0.0672
AACGCTCA | 0.0947
ACGTAAGT | -0.0785

A few entries again (series 3):
SMILES | inhibition [%]
C/C=C(/C)C(=O)O[C@H]1C(C)=C[C@]23C(=O)[C@@H](C=C(CO)[C@@H](O)[C@]12O)[C@H]1[C@@H](C[C@H]3C)C1(C)C | -2.74
CSc1ccccc1OCC(O)CNC(C)C (stereo not shown) | -0.4
O=C(CC(c1ccccc1)c1ccccc1)N1CCN(C(c2ccccc2)c2ccccc2)CC1 | -15.2
Cc1noc(C)c1-c1cc(O)cc(C(O)c2ccccc2)c1 (stereo not shown) | 0.97
CCCCCCCCCCCCCCOC(=O)c1cccnc1 | 0.28
CN(C)CCCOc1nn(Cc2ccccc2)c2ccccc12 | -4.82
CCC(C)C(CC)C(N)=O (stereo not shown) | -0.39
